Results from different studies.
Parts stem from different laboratories: compare values within a part only.

Series 1 — technique: RNA Bind-n-Seq; form: RNA; sample: in vitro; tested at: 365 nM; relative to: no-protein control; reading: higher = stronger binding
Target: RNA binding protein fox-1 homolog 2, RRM domain, GST-SBP tag (RBFOX2, Homo sapiens, UniProt O43251-10, residues 100-194)
Setting: natural RNA segment, single round, ends assumed
Shared flanks, not repeated: GGGAGUUCUACAGUCCGACGAUC … UGGAAUUCUCGGGUGCCAA
Sequence | RBNS enrichment (R)
AAAUUUGCAAGAGAAUUAACACAUACACAGUUUGCCAAAUCAUAUCAAAUCUUCCCAUUGGAGAUAUAUUAGUACACUUAAAAUACCUAAUAUUCUGAUUUUUAUCUAUU | 0.758
UGGAUUGCUGCUAGGAGAGUGACCCUUUAGUGGCAUAGUGACCUCAGACAAGAACUCCCUGGUUGAAAGAAGCCACCUCGAUGCAAAGGCUCAAGGUCCAGGGAGAGACA | 0.602
CCUGCUGGGACCUAUGGAAGGGGCUUCCUGGCCAAGGCCCCCUCUUCCAGAGGAGGAGCAGGGAUCUGGGUUUCCUUUUUUUUUUCUGUUUUGGGUGUACUCUAGGGGCC | 0.385
GGACUGAGUGUUCGGGGCAGCCUGCUCGGCUGUAUGUUUCUCGCACGCUCACCCGCUUCAGUGCGGCUCUGUCCCUGCUGCCGCCUCCAGUCCUGAGGGAGGGGCUUGCC | 0.803
UCAAUGUGCCUUUGCAUAAAGUUCAUUAAAUAAAUAUUGAUGUGGUAUAAAUGCCCAUCAGAUAUGCUAAACUUGGUUUUCAGUUGAAUGAAGUAGAGAAUGUCCUCAGG | 0.506
GUCAAGGUCACUGAGAGGAAUUUGUUUAGAUGCCCAGUUUAGAGUGAAUAGAUAUCUGCGGGGAACCUGGGGCAUUUUGGGGAACCCUGGGGUCUUUUACAGGUCAUGUU | 1.3
CUGAGUGACUAACAUGAUGCACAUAACCAAACGGGGCCAAUGGUACAAACUUCACUCAUCAUUUGAAUACAGUAUUUACAGAGGAUGUUUGAGUUGAGAGCUUUUUUAGG | 0.669
UCAUUAUCGAUGAAAGUGAUGUAUCUUCACCUACCAUUUUCCUAAUAAAGUUCUGUAUUCAAAUAUAGCUGCCAAGCAUCCUCAGUGAAUGUUACCAUGUGGAAUUUUCC | 2.55

Series 2 — technique: protein binding microarray; form: double-stranded DNA, one strand shown; sample: in vitro; tested at: not given; relative to: not given; reading: higher = stronger binding
Target: Histone acetyltransferase KAT6A, winged helix 2, GST fusion (KAT6A, Homo sapiens, UniProt Q92794, residues 85-181)
Setting: 8-mer, flanks averaged, mean of 2 arrays, mostly near background
Construct (chain): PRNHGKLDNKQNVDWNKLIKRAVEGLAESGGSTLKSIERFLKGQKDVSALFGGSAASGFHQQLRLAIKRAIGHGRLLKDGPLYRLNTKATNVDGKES
Sequence | E-score
TCGCCGAA | 5e-05
ATTATAAT | -0.0846
TTCCTCAA | -0.0364
AGATGATG | -0.0738
CCTCCGGA | 0.133
AATTGTAT | 0.148
AGTCCGAC | -0.195
CAGCGTTC | -0.0836
ACGTGTCG | -0.209
CAGGGGAC | 0.123
ATGAAGTA | -0.011
AATAAGTC | -0.238
AAGGAATG | 0.0151
GATCGAAA | 0.164
AGATTACC | -0.142
CACTAATC | -0.024
ATAGACAC | -0.0106
CATAACCG | -0.106
AGAGGTTC | -0.0877
AGGCAGAG | 0.108
AAGGCCCT | 0.0885
ACGGAAGA | -0.131
AAGAGCCT | -0.222
ATTTACGG | 0.0468
ATTATTTG | 0.0753

Series 3 — technique: RNAcompete; form: RNA; sample: in vitro; tested at: 20 nM; setting: 7-mer, probes averaged, single round; relative to: mean of 7-mers; reading: higher = stronger binding
Target: PABPC1L2, full length, GST fusion (mouse, UniProt A0ABA7IW68)
Residues (chain): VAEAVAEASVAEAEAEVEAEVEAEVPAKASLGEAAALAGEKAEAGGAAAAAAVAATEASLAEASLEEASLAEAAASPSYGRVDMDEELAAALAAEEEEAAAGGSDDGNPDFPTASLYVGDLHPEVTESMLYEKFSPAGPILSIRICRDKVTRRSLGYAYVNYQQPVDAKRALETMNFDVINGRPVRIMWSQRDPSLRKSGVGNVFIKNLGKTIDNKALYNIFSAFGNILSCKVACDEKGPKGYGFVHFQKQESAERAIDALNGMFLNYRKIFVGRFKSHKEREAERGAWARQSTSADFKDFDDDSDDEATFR
Sequence | 7-mer Z-score
CAUGAGG | 0.113
GUGUCCA | -0.195
GCUGACC | -0.0301
GGGGCUG | 0.611
GGACUAA | 0.251
GAUAUUA | -0.171
UUGGACU | -0.182
CAGCCCC | -0.244
CUCCGGC | -0.385
AAAGGAA | 1.09
ACCCCGU | -0.367
AUAACUC | -0.17
AUUGCCC | -0.306
UCUCCAG | -0.306
ACGAUCU | -0.146
AUAAUAU | 0.0334
GAGUAAC | -0.0699
UUUUUGG | 0.017
UUCGUUG | -0.487
UAUGUAA | 0.211
AAAGCGC | 0.93
CCGCAUG | -0.249
UCUAGGA | -0.112
ACGUGCA | -0.0917
UGCAGGU | 0.00436

Series 4 — technique: aptamer microarray, sandwich; form: DNA with 2'F-ANA; sample: in vitro; tested at: 200 nM; together with: Cy3 exosite-II aptamer, 400 nM; reading: higher = stronger binding; sequence: GGTTGGTGTGGTTGG
Target: Prothrombin, mature alpha-thrombin (F2, Homo sapiens, UniProt P00734)
Setting: whole 15-mer aptamer, many near background
Modification | mean fluorescence intensity [a.u.]
2'F-ANA at 1 2 3 5 11 12 14 | 66.3
2'F-ANA at 1 4 5 7 11 12 14 | 44.3
2'F-ANA at 4 5 6 7 8 9 10 13 15 | 47.8
2'F-ANA at 2 4 5 6 7 8 10 13 14 15 | 53
2'F-ANA at 1 3 4 5 6 9 11 | 57.8
2'F-ANA at 1 3 5 9 10 11 12 13 15 | 50.5
2'F-ANA at 1 2 4 7 8 10 14 15 | 57.6
2'F-ANA at 1 4 5 6 10 11 12 14 15 | 47.2
2'F-ANA at 2 3 4 6 7 10 12 13 | 259
2'F-ANA at 2 4 8 | 539
2'F-ANA at 2 3 4 6 8 10 12 13 15 | 200
2'F-ANA at 2 3 5 6 7 9 11 12 13 14 | 62.4
2'F-ANA at 1 2 4 5 8 9 12 13 15 | 69.6
2'F-ANA at 2 3 8 9 10 14 | 314
2'F-ANA at 2 5 7 10 11 12 | 50.3
2'F-ANA at 1 2 4 6 7 8 10 13 14 | 49.7

Series 5 — technique: universal PBM; form: double-stranded DNA, one strand shown; sample: in vitro; tested at: 600 nM; reading: higher = stronger binding
Target: Sal-like protein 4, full length isoform A (SALL4, Homo sapiens, UniProt Q9UJQ4, residues 1-1053)
UniProt Q9UJQ4, sequence (whole entry, looked up): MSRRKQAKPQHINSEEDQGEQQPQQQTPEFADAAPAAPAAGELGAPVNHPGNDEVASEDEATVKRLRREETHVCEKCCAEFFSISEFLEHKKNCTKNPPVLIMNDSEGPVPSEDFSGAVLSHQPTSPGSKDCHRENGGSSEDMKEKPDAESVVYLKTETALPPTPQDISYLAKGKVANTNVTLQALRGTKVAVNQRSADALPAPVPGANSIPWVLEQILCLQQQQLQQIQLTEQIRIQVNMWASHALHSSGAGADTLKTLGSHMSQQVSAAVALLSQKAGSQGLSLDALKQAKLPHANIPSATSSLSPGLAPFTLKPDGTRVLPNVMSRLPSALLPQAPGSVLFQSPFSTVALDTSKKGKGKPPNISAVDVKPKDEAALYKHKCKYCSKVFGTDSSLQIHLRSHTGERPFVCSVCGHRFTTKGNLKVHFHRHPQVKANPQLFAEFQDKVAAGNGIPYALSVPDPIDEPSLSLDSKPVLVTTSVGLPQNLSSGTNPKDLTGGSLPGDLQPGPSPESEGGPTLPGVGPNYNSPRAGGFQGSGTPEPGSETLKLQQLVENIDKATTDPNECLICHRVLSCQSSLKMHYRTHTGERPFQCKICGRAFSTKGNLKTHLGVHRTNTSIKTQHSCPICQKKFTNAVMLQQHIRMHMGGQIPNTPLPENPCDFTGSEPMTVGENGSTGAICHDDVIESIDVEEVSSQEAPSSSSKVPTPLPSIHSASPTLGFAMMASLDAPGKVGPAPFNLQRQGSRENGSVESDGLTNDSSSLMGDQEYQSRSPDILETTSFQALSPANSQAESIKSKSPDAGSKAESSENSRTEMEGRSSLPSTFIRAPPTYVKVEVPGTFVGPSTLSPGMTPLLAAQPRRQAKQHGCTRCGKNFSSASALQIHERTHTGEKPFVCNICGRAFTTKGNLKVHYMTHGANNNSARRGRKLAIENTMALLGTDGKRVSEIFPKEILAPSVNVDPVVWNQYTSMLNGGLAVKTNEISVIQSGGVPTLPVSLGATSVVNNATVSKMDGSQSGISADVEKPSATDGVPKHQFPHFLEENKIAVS
Setting: 8-mer, flanks averaged, mean of replicates
Sequence | E-score
ATAACGCA | 0.238
ATACGATC | 0.0231
CGAGTGCG | -0.234
ATAGCTAT | 0.328
AGTTCCTG | -0.189
ACGGGGCC | -0.353
AATGCTTA | 0.174
ACGAGCAC | -0.0787
GATAAGCA | 0.141
AATTGGCG | 0.141
ACACGTAG | -0.0955
AGCGGCTA | -0.066
CGTCTCCA | -0.108
AGGTGAAA | 0.129
TACAGGTA | 0.135
AGCTTGTG | -0.0798
AACGCTGC | -0.103
CCAATAGA | 0.174
AACGGCGT | -0.041
AGTCGCGG | -0.3
CGATCCGC | -0.258
ATTATCGG | 0.119
AACAGGGG | -0.187
CGGCATCC | -0.111

For quick reference, copied from above (series 2):
Sequence | E-score
CAGCGTTC | -0.0836
ACGTGTCG | -0.209
CAGGGGAC | 0.123
ATGAAGTA | -0.011
AATAAGTC | -0.238
AAGGAATG | 0.0151
GATCGAAA | 0.164
AGATTACC | -0.142
CACTAATC | -0.024
